Measurements collected from several papers.
Parts stem from different laboratories: compare values within a part only. Changes are numbered by the printed parent chain.

Set 1
Target: CCNB2, cyclin fold, Cln2 fusion (human)
Technique: yeast growth competition, sequencing
Sample: yeast
Notes: weak parent motif
Baseline: not given
Reading: higher = stronger binding
Starting sequence: RBL1 docking peptide (human); GSAKRRLFGEDPP; partner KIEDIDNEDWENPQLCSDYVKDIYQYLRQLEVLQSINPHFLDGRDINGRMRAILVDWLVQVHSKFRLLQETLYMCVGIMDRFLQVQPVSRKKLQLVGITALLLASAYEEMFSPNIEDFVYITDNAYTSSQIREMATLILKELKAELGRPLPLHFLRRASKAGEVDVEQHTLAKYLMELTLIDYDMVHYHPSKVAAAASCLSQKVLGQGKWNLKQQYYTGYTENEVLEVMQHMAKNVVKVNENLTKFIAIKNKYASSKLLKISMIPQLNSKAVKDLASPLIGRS
| Variant | normalised enrichment score |
| --- | --- |
| R5M | -0.397 |
| A3S | 0.143 |
| R5W | -0.357 |
| K4L | -0.365 |
| K4Y | 0.00115 |
| P13L | 0.682 |
| D11L | 0.489 |
| G9F | 0.277 |
| D11Q | 0.633 |
| R6F | -0.207 |

Set 2
Target: Sal-like protein 4, full length isoform A (SALL4, Homo sapiens, UniProt Q9UJQ4, residues 1-1053)
Chain of UniProt Q9UJQ4 (whole entry, looked up): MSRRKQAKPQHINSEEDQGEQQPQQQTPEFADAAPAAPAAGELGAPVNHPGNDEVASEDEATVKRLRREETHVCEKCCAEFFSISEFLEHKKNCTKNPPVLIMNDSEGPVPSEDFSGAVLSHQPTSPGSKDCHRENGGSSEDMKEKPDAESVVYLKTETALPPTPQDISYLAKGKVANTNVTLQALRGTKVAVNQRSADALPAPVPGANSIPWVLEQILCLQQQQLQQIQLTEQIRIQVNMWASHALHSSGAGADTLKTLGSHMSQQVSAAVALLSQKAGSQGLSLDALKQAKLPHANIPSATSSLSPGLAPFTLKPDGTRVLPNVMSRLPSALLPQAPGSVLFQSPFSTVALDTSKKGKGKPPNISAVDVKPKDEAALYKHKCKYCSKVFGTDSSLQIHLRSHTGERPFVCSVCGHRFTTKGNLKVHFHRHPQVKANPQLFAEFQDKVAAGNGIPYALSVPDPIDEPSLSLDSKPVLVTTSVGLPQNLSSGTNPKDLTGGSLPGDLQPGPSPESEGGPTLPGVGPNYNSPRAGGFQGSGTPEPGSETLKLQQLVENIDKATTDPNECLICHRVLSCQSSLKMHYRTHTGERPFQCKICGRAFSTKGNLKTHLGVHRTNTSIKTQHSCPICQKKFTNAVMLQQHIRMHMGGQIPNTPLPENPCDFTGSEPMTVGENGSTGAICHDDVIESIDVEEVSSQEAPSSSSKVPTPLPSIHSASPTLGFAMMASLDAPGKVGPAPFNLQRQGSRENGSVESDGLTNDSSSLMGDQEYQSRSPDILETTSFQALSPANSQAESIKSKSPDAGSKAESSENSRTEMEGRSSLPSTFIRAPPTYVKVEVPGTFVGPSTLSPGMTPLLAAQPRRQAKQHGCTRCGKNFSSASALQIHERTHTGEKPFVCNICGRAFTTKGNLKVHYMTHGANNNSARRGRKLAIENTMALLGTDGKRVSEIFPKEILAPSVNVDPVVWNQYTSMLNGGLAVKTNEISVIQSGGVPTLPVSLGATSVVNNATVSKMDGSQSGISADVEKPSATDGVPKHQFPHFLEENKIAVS
Technique: universal PBM
Form: double-stranded DNA, one strand shown
Sample: in vitro
Concentration: 600 nM
Notes: 8-mer, flanks averaged, mean of replicates
Reading: higher = stronger binding
| Strand | E-score |
| --- | --- |
| ATGGTGCC | -0.235 |
| AATTGTCG | -0.00566 |
| GGTAAAGA | 0.115 |
| GACGCACA | -0.084 |
| CATACAGC | 0.0235 |
| GTCGCGCA | -0.226 |
| CTAAGCTC | -0.136 |
| GAATCGGA | 0.0215 |
| AAAGCACG | -0.0439 |
| CCTGGTTC | -0.239 |
| TCACATAA | 0.287 |
| GCTGATCA | -0.0949 |
| CTGACCGC | -0.291 |

Set 3
Target: RNA binding protein fox-1 homolog 2, RRM domain, GST-SBP tag (RBFOX2, Homo sapiens, UniProt O43251-10, residues 100-194)
Technique: RNA Bind-n-Seq
Form: RNA
Sample: in vitro
Concentration: 365 nM
Notes: natural RNA segment, single round, ends assumed
Baseline: no-protein control
Reading: higher = stronger binding
Constant ends, left off below: GGGAGUUCUACAGUCCGACGAUC … UGGAAUUCUCGGGUGCCAA
Construct (chain): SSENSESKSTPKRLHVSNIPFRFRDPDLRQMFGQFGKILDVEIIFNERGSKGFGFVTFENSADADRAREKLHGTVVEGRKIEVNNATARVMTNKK
| Strand | RBNS enrichment (R) |
| --- | --- |
| ACGUGAAGUCAGCCCACACCAGCCAAACCCUCGUGGAAGAUCUGCUGCAACCAUUAUCUUUGUUCUUGAGUUCAUCAUGCAUUUAAAAUGAGAUGCAAGAGCAUUUAGCA | 0.815 |
| ACACUUCCAGGAACAUUAACAUGAAGGGAAGAGGUGAGCCACCCUCCUUGCCUGGCCUUAGCCGUUUCUUGGAGCAUCACUAAUGGCCCAGCCCCCAGGCACAAGGGGCA | 0.633 |
| AUUUAAAUUGUGCACAGCAACAGGUUCUCAGUUCUGCCAGUUCCUUUAUGCUCCUGUAAUCGGCUAACUGUGGAUUUGAUGUCAAGUAUGCAUGUUACCUUAUGUGUAUU | 2.47 |
| UUUUGUUAUAUCUGAACUAGUUGAACUGUGACUGACAGGUAAUCCUAAUAUAUCCAAAUCCAACUGAAUACCAAAUUGAGAUGGCAAAUUUUUGUUUGAUAUAAGUUAGC | 0.211 |
| CAUUGGAUUGUUAGGGAUAGGCAGCAGGGCUGAGGCAAGGUAGGCCAACUGCACCCCUGUCGCCUGGAGGAGGGCCAGCUCGCUGCCCGAGCUCUGGCCUAGGGACCUUG | 0.336 |
| CCCCAGGUUUGAAACACAUAGCCUCAUUUCAAGGUGUAGCCAGGUUCCCCCGACUUUCCUCUGGGAUAUAAAAAAGGGGGUAAGGGGGCAAAGAGAGCCCUCUGGGCCUC | 0.386 |
| CUAAGAGCAUGGCCUCUCCCAGAACCCACCCAGGGUGGUGUGGUGGGGGCAACAGGGGCCAGACUCCUCUAGAGGGAGGGUGGCUCUGGGGCCCUGGAAAACGUGAGAGA | 0.793 |
| GUAUGUUUUGCAAAAAUCAGUCCACUUAGCAAACUAAUCUUUGUAAAGCAGUCAGUUUCAGAAGAUACUUUUUAUCAAAAAAGAUGGCAGGUUUAACAUUAUACCUUUUG | 0.309 |
| UGAAGGUUGGACCCGUGAAGCCCUGGCAUAGACCUGAAGAGGUGGCAGCCAGUGGGUGGUUGUUUCUCAAUCUCUGUAGCAUGACUUUUUAAUCCCCAGGUGUGUUAGUC | 5.15 |
| CAUAAUGUGUUGUGAAAAUUUAAUCUUAAAAAUUAAAUUUUUAAACUAUGUGGGUCUGUGAAUUUCUUUAAUGUCUAAGAAAUCCAGCUUCAUAAUUUCCAUGAUACAAA | 0.683 |
| AAAGGGAAAAAGGUGGAUUCAGAACUAUGACUUCAGGGCCCAGCAGUGUUGAUAGAGCAGCAUAUUAGACAAACACACAGUUGUUAGUUUUCAGACAUUCGCUCACGGAC | 1.08 |
| GCUUGCUCAGAGAGGCCAAACCCUGCUCCCAGGCUGAAGCCUGGAGUCUGCCCCCACUUCCCUUUUCUAUAAUCCACCCUUCUGCAGGCCCUGAAAUCUGAAGGGCUUAG | 2.52 |

Other studies, line by line
| Molecule | target | assay | system | setting | scale | measurement | result |
| --- | --- | --- | --- | --- | --- | --- | --- |
| PhoQ, residues 284 288 289 292 302 303 TVTVVA | PhoP, residues 12 14 15 18 19 LHSVW (Escherichia coli, UniProt P23836) | Sort-seq, measured: YFP reporter | E. coli | PhoQ-PhoP variant library, added: 10 µM Mg2+ | baseline: high Mg2+ state, higher = stronger signaling | fold induction | 7.68 |
